{"data": "Experimental data gathered from unrelated publications", "note": "Numbered parts are unrelated; each lists some results of a single study. Changes are numbered by the printed parent chain."}
{"data": "Set 1", "target": "Histone acetyltransferase KAT6A, both winged helices, GST fusion (KAT6A, Homo sapiens, UniProt Q92794, residues 1-181)", "method": "protein binding microarray", "molecule type": "double-stranded DNA, one strand shown", "medium": "in vitro", "tested at": "not given", "setting": "8-mer, flanks averaged, mean of 2 arrays, mostly near background", "relative to": "not given", "direction": "higher = stronger binding", "Construct (chain)": "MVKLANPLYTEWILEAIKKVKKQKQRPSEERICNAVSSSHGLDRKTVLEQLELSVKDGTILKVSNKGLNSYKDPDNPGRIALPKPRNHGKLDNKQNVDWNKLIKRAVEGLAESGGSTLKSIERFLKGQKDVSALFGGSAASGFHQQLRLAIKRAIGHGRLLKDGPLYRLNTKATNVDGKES"}
{"Strand": "CGTTTCTA", "E-score": 0.0837}
{"Strand": "GGCCCACC", "E-score": -0.0106}
{"Strand": "TGCCCCAA", "E-score": -0.241}
{"Strand": "ATGTGCGA", "E-score": 0.0496}
{"data": "Set 2", "target": "ABI1, truncated, D143A, DHFR fusion (Arabidopsis thaliana)", "method": "DHFR PCA, deep sequencing", "medium": "yeast", "setting": "methotrexate growth selection, single substitutions", "added": "(+)-ABA 58 µM", "relative to": "wild-type fitted maximum", "direction": "higher = stronger binding", "starting sequence": "PYL1, truncated, DHFR fusion (Arabidopsis thaliana); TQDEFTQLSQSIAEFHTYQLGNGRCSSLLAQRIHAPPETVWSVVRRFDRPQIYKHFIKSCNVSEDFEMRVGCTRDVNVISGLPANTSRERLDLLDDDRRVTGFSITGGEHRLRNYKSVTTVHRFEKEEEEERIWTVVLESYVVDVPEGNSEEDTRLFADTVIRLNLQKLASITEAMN; partner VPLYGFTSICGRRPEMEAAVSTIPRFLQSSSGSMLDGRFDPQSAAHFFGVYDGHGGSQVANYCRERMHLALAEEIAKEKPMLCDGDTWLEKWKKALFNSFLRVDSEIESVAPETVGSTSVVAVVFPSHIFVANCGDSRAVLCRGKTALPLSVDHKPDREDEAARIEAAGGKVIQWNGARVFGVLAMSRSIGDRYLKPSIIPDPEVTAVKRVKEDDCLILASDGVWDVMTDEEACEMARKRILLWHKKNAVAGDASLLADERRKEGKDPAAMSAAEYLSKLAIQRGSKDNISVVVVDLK"}
{"Change": "Q51A", "relative binding score": "45.2%"}
{"Change": "K54M", "relative binding score": "2.78%"}
{"Change": "T135S", "relative binding score": "89.7%"}
{"data": "Set 3", "target": "RING finger protein unkempt homolog, zinc fingers 1-6, SBP tag (UNK, Homo sapiens, UniProt Q9C0B0, residues 30-357)", "method": "RNA Bind-n-Seq", "molecule type": "RNA", "medium": "in vitro", "tested at": "100 nM", "setting": "RNA with constant flanks, vertebrate orthologous sites, ends assumed", "relative to": "input RNA pool", "direction": "higher = stronger binding", "chain of UniProt Q9C0B0 (30-357, looked up)": "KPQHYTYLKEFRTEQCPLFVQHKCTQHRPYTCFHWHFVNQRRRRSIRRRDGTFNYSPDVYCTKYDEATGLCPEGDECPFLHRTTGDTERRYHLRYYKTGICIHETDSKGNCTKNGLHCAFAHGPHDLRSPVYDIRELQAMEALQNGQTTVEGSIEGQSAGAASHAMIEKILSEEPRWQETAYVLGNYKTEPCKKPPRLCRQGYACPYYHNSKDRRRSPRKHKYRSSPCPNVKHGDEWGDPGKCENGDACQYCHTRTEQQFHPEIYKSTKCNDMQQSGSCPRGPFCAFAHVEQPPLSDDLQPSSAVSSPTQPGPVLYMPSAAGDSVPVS"}
{"Strand": "GGGAGUUCUACAGUCCGACGAUCUUUUAUUGAUCAGGUCUGUAAAUGUGUACUAAAAAAAUCAGAGUCUAUUUAUAAACAGAAUAGUUUAUUUAAAGAGGUCUUUCCUCACAAUGUUGUGAUAUGCGUAAUUCCAUUUGUUACCAACAGAGGAUUGAGCAUCA", "bound/input enrichment [ratio]": 0.314}
{"Strand": "GGGAGUUCUACAGUCCGACGAUCUGUUAACUCUUGCAGUCUUAGAUGUUAUAAAACUAUAUAUGUCUGAAUUGUAAGAGUUGUUAACACAGUUUUUUUUUUUAAGCACUUGUUUUGGGUACAAAAUUUUAUAAACACAUUUAACAACAGAGGAUUGAGCAUCA", "bound/input enrichment [ratio]": 0.24}
{"Strand": "GGGAGUUCUACAGUCCGACGAUCAGAAAAUUUUAACCAGGAAUCUGAAGGUAGAAAUACAGGACCAUGGUUAUCUUCCUCACUUAGAAAUAGAUGCACACCUUUGUUCUCUAGAAGGAGACGAGAGGGACGAGAUGAAUCUUCCAACAGAGGAUUGAGCAUCA", "bound/input enrichment [ratio]": 0.766}
{"Strand": "GGGAGUUCUACAGUCCGACGAUCGUGGUAAUGUGUUCUUUAUUGAAAAUAGUUUUGUGCUAAGGACUGUAUUAGAUUUAAAAAUGAGUAGGUUCAUUCCCCAUUGUUGUGUUGAUUUUAUUAUUGAAAAUAAAUAUAACUUCACAACAGAGGAUUGAGCAUCA", "bound/input enrichment [ratio]": 1.47}
{"data": "Mixed results"}
{"Molecule": "PhoQ, residues 284 288 289 292 302 303 TTCLQL", "target": "PhoP, residues 12 14 15 18 19 VHSCL (Escherichia coli, UniProt P23836)", "assay": "Sort-seq, item: YFP reporter", "test system": "E. coli", "conditions": "PhoQ-PhoP variant library, added: 10 µM Mg2+", "scale": "relative to: high Mg2+ state, higher = stronger signaling", "measurement": "fold induction", "value": 5.99}
{"note": "For quick reference, copied from above (set 3):"}
{"Strand": "GGGAGUUCUACAGUCCGACGAUCAGAAAAUUUUAACCAGGAAUCUGAAGGUAGAAAUACAGGACCAUGGUUAUCUUCCUCACUUAGAAAUAGAUGCACACCUUUGUUCUCUAGAAGGAGACGAGAGGGACGAGAUGAAUCUUCCAACAGAGGAUUGAGCAUCA", "bound/input enrichment [ratio]": 0.766}
{"Strand": "GGGAGUUCUACAGUCCGACGAUCGUGGUAAUGUGUUCUUUAUUGAAAAUAGUUUUGUGCUAAGGACUGUAUUAGAUUUAAAAAUGAGUAGGUUCAUUCCCCAUUGUUGUGUUGAUUUUAUUAUUGAAAAUAAAUAUAACUUCACAACAGAGGAUUGAGCAUCA", "bound/input enrichment [ratio]": 1.47}
